Experimental data gathered from unrelated publications.
A part holds a random share of what one study measured. Changes are numbered by the printed parent chain.
Sequence of UniProt Q99759 (whole entry, looked up): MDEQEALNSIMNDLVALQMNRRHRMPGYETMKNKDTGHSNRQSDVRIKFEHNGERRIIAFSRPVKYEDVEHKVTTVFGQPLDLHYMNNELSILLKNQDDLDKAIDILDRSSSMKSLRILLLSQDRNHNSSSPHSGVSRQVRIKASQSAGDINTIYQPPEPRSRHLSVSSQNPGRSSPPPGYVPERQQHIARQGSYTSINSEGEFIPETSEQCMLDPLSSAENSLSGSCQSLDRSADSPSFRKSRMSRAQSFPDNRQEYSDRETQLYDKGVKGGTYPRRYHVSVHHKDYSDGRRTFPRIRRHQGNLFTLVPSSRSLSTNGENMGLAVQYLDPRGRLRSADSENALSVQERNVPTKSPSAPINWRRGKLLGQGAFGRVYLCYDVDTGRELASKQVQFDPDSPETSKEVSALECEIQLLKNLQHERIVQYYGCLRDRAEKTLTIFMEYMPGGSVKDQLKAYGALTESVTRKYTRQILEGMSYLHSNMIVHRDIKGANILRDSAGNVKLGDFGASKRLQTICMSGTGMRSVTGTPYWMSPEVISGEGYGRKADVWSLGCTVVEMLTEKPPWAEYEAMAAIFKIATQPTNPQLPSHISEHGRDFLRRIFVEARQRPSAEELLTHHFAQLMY
Sequence of UniProt Q7KZI7 (whole entry, looked up): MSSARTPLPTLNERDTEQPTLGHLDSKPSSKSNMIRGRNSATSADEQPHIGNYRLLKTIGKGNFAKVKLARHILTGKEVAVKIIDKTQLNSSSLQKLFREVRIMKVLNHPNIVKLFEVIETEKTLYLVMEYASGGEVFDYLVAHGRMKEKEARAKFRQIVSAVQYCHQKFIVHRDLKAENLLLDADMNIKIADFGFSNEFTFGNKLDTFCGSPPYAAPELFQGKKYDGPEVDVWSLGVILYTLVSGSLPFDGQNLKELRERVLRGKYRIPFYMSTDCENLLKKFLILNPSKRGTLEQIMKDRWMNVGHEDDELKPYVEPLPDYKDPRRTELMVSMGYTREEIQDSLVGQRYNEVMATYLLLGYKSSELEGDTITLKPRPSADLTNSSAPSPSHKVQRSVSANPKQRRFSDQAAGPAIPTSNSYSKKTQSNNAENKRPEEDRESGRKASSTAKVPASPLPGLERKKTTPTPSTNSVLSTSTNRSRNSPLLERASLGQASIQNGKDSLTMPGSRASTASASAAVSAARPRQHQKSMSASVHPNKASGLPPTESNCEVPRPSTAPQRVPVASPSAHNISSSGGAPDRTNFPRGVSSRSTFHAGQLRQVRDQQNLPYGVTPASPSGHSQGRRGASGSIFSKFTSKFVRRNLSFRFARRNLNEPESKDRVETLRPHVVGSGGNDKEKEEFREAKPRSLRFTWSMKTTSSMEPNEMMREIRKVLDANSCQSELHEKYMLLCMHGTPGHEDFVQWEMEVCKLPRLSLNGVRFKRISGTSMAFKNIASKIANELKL
Sequence of UniProt P35626 (whole entry, looked up): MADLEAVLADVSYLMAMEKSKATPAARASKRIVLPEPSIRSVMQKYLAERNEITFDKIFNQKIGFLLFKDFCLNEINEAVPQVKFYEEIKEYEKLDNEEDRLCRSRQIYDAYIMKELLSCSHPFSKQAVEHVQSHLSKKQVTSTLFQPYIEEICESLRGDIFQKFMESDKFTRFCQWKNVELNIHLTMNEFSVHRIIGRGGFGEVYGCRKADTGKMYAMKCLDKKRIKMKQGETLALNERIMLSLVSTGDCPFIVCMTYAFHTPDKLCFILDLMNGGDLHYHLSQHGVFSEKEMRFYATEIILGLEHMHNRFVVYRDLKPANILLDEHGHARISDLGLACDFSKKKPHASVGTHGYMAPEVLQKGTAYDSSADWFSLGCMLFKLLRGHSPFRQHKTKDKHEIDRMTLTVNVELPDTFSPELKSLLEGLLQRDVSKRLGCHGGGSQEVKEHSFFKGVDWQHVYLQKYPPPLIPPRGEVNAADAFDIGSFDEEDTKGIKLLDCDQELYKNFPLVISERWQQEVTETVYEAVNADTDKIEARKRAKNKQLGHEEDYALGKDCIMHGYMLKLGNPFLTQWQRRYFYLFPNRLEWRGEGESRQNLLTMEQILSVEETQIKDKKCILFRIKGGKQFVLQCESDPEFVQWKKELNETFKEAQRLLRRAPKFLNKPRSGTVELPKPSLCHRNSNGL
Sequence of UniProt P29320 (whole entry, looked up): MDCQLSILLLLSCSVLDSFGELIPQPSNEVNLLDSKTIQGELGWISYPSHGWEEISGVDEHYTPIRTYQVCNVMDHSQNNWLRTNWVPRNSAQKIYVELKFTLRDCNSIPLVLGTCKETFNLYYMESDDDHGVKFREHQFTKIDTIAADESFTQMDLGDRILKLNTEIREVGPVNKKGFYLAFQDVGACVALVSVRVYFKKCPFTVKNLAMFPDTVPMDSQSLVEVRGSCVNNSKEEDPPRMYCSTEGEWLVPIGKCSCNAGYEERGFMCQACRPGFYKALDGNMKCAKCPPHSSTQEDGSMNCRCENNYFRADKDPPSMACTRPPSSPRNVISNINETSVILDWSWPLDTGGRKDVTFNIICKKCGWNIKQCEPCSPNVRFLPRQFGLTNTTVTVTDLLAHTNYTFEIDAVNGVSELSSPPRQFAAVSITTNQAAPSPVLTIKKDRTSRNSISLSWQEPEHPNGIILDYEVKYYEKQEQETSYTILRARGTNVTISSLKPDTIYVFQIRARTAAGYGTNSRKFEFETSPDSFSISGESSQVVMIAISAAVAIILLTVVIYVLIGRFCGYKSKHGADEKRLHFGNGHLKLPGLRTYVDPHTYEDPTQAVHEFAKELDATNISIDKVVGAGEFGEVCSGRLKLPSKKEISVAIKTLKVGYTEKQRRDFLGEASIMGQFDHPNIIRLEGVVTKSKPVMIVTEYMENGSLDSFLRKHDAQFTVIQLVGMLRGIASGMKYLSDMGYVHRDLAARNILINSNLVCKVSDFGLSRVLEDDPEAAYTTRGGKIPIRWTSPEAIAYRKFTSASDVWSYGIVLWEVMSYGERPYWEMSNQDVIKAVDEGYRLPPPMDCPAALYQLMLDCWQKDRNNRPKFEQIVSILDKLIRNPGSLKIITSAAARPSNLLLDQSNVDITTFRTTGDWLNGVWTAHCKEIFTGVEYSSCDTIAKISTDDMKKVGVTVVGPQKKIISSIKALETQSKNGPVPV
Sequence of UniProt P41240 (whole entry, looked up): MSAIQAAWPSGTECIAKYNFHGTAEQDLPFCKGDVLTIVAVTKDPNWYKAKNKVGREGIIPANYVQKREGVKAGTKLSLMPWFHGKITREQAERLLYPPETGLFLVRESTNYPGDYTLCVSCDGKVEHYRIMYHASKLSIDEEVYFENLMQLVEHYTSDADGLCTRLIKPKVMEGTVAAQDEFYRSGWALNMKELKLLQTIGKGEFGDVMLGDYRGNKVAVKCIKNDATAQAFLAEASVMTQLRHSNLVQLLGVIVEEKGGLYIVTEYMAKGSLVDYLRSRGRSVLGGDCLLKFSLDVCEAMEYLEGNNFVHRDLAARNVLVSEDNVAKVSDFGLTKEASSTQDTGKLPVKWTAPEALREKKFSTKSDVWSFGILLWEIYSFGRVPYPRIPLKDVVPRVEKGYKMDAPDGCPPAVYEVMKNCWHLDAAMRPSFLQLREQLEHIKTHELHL
Sequence of UniProt Q13976 (whole entry, looked up): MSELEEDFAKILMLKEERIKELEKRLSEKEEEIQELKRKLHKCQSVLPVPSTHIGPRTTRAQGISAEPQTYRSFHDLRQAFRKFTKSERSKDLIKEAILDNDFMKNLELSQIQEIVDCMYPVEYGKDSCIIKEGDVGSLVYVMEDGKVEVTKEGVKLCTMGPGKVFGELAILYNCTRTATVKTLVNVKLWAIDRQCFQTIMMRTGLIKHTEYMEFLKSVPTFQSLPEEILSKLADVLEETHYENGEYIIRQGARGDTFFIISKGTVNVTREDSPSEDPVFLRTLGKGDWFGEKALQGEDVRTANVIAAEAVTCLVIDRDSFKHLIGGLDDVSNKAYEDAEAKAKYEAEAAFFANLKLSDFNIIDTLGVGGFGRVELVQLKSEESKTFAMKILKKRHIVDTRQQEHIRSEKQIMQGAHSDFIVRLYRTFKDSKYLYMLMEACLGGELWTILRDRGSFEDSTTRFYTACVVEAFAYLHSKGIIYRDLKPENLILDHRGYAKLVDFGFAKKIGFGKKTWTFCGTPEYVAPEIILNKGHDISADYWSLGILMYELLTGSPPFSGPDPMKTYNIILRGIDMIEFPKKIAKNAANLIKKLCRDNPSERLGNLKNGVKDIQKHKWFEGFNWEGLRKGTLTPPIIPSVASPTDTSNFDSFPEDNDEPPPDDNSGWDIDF

Study 1
Target: PABPC1L2, full length, GST fusion (mouse, UniProt A0ABA7IW68)
Technique: RNAcompete
Form: RNA
Medium: in vitro
Concentration: 20 nM
Setting: 7-mer, probes averaged, single round
Baseline: mean of 7-mers
Direction: higher = stronger binding
Measurement: 7-mer Z-score
Construct (chain): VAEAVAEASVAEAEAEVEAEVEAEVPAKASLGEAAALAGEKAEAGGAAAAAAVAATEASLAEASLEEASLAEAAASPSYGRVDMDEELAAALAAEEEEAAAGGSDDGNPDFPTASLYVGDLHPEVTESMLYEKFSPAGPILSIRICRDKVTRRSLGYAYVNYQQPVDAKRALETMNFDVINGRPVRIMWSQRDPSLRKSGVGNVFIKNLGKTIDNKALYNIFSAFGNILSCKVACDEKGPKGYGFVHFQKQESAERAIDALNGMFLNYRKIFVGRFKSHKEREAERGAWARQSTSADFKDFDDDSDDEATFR
Strand = UCUGCUC; value = -0.49
Strand = CCUUGCA; value = -0.34
Strand = AUUUUAC; value = -0.208
Strand = GCUGGGA; value = 0.209
Strand = AGGGCUA; value = 0.178
Strand = ACUGCUU; value = -0.275
Strand = GAUACUA; value = -0.104
Strand = ACGUAAU; value = -0.11

Study 2
Structure (SMILES): CC(C)(O)c1cncc(-c2nc3ccc(F)cc3n2C2CC2)c1
Observed: cell-free assay
Technique: competition with immobilised ligand
Concentration: 1 µM
Measurement: remaining binding
target = Serine/threonine-protein kinase MARK2 (MARK2, Homo sapiens, UniProt Q7KZI7); value = 100%
target = Ephrin type-A receptor 3 (EPHA3, Homo sapiens, UniProt P29320); value = 100%
target = Tyrosine-protein kinase CSK (CSK, Homo sapiens, UniProt P41240); value = 100%
target = Receptor tyrosine-protein kinase erbB-2 (ERBB2, Homo sapiens, UniProt P04626); value = 100%

Study 3
Target: ABI1, truncated, D143A, DHFR fusion (Arabidopsis thaliana, UniProt P49597)
Technique: DHFR PCA, dose-response
Medium: yeast
Setting: Hill fit, mean, not affinity
Together with: (+)-ABA, dose series
Direction: lower = more sensitive
Measurement: ABA EC50
Parent: PYL1, truncated, DHFR fusion (Arabidopsis thaliana, UniProt Q8VZS8); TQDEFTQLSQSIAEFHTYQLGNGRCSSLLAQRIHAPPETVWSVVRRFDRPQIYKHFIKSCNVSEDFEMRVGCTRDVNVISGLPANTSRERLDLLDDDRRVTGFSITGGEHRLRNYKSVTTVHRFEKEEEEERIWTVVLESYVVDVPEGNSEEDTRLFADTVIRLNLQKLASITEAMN
Substitution = H34T; value = 9.01 µM
Substitution = D97S; value = 2.58 µM
Substitution = P50C; value = 92.1 µM
Substitution = E109K; value = 7.9 µM
Substitution = A170Q; value = 2.6 µM
Substitution = H55S; value = 0.354 µM
Substitution = Q2A; value = 3.82 µM
Substitution = L166N; value = 948 µM

Study 4
Structure (SMILES): CC#CC(=O)Nc1cc2c(Nc3ccc(F)c(Cl)c3)ncnc2cn1
Observed: enzyme activity
Action: inhibitor
Concentration: 0.5 µM
Baseline: control
Measurement: remaining activity
target = Serine/threonine-protein kinase Chk2 (CHEK2, Homo sapiens, UniProt O96017); value = 98.8%
target = cGMP-dependent protein kinase 1, isoform beta (PRKG1, Homo sapiens, UniProt Q13976); value = 91.7%
target = cAMP-dependent protein kinase catalytic subunit alpha (PRKACA, Homo sapiens, UniProt P17612); value = 97.7%
target = G protein-coupled receptor kinase 3 (GRK3, Homo sapiens, UniProt P35626); value = 103%
target = Protein kinase C alpha type (PRKCA, Homo sapiens, UniProt P17252); value = 101%
target = Inhibitor of nuclear factor kappa-B kinase subunit beta (IKBKB, Homo sapiens, UniProt O14920); value = 102%
target = Mitogen-activated protein kinase kinase kinase 3 (MAP3K3, Homo sapiens, UniProt Q99759); value = 107%

A few entries again (study 1):
Strand = UCUGCUC; value = -0.49
Strand = CCUUGCA; value = -0.34
Strand = AUUUUAC; value = -0.208
Strand = GCUGGGA; value = 0.209
